Measured values pooled from the literature.
Compare with care: the assays were run in different laboratories. Numbers after ± are the reported error.

Structure (SMILES)	test system	setting	Cmax
O=C(O)/C=C\c1ccc2occc2c1O[C@@H]1O[C@H](CO)[C@@H](O)[C@H](O)[C@H]1O	rat, plasma	oral, 217 mg/kg Pc extract, dosed as Pc extract	289 ± 132 ng/mL
O=C(c1cc(Cc2n[nH]c(=O)c3ccccc23)ccc1F)N1CC(CNC2CC2)C1	female Wistar Han rat	oral, 60 mg/kg, day 28	8120 ng/mL
CCN1CC2(COC)C(O)CC(OC)C34C5CC6(O)C(OC)C(O)C(O)(C5C6OC(=O)c5ccccc5)C(C(OC)C23)C14 (centres unmarked)	Sprague-Dawley rat, plasma	oral, dose not given, in PCW extract	59.9 ± 5.59 ng/mL
CN1CCCCC1C(=O)NC(Cc1ccc(-c2ccccc2)cc1)B(O)O (centres unmarked)	male Sprague-Dawley rats, plasma	intravenous, 1 mg/kg, citrate ester	1710 nM
[2H]c1nc([2H])c(-c2nc([2H])n3c2C([2H])([2H])N=C(c2ccccn2)c2cc(C#C)ccc2-3)o1	Sprague Dawley rat, brain	oral, 2 mg/kg, cassette dosing	334 nM
COCC12CCC(OC)C34C5CC6(O)C(OC)C(O)C(O)(C5C6OC(=O)c5ccccc5)C(C(OC)C13)C4N(C)C2 (centres unmarked)	Sprague-Dawley rat, plasma	oral, dose not given, in PCW extract	152 ± 22 ng/mL
CC(C)N1CCCCC1C(=O)NC(Cc1ccc(-c2ccccc2)cc1)B(O)O (centres unmarked)	male Sprague-Dawley rats, plasma	intravenous, 1 mg/kg, citrate ester	2660 nM
COc1cccc2c1C(=O)c1c(O)c3c(c(O)c1C2=O)CC(O)(C(=O)CO)CC3OC1CC(NC(=O)OC2C=CCCC(C)(C(=O)NCC(=O)O)CC2)C(O)C(C)O1 (centres unmarked)	Sprague Dawley rats male, plasma	intravenous, 21.5 mg/kg/day doxorubicin equivalent, day 3	1980 ± 427 ng/mL

Some of these lines once more:
Structure (SMILES)	test system	setting	Cmax
O=C(c1cc(Cc2n[nH]c(=O)c3ccccc23)ccc1F)N1CC(CNC2CC2)C1	female Wistar Han rat	oral, 60 mg/kg, day 28	8120 ng/mL
